Published values collected from several papers.
A part holds a random share of what one study measured.
UniProt Q04912, sequence (whole entry, looked up): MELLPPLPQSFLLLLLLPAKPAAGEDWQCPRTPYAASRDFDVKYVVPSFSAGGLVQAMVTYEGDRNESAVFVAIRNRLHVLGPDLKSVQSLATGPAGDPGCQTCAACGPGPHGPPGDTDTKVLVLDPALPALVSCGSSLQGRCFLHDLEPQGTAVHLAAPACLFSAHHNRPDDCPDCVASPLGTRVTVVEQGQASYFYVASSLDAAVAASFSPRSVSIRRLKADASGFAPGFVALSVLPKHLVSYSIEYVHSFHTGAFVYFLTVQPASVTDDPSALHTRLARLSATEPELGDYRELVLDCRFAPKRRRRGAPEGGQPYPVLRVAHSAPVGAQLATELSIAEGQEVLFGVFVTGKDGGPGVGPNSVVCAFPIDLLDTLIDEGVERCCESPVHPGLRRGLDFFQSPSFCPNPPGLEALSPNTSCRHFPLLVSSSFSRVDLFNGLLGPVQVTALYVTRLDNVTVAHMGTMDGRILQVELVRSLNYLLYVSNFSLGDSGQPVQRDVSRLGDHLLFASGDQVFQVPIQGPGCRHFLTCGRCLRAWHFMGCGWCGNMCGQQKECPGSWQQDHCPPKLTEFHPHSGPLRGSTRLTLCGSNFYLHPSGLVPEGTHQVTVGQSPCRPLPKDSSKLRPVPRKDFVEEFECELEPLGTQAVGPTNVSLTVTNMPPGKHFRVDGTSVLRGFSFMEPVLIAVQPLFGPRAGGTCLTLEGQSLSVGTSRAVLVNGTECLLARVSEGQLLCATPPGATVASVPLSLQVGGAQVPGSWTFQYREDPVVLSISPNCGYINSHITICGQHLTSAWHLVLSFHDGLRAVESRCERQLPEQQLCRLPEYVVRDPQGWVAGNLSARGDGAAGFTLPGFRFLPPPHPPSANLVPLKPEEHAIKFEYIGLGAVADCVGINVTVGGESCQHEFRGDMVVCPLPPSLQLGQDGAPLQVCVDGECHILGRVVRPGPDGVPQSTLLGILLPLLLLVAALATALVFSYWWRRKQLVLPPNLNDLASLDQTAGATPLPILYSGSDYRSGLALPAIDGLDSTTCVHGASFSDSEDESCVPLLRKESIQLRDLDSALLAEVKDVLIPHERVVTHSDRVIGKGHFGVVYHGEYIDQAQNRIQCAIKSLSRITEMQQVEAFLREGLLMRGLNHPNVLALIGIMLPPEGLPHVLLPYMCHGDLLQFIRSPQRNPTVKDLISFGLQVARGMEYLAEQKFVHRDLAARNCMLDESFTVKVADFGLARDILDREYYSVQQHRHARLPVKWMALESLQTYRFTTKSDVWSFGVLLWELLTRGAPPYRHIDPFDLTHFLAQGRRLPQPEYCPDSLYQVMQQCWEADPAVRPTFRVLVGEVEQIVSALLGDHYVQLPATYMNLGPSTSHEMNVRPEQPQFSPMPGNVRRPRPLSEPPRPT
UniProt Q96PY6, sequence (whole entry, looked up): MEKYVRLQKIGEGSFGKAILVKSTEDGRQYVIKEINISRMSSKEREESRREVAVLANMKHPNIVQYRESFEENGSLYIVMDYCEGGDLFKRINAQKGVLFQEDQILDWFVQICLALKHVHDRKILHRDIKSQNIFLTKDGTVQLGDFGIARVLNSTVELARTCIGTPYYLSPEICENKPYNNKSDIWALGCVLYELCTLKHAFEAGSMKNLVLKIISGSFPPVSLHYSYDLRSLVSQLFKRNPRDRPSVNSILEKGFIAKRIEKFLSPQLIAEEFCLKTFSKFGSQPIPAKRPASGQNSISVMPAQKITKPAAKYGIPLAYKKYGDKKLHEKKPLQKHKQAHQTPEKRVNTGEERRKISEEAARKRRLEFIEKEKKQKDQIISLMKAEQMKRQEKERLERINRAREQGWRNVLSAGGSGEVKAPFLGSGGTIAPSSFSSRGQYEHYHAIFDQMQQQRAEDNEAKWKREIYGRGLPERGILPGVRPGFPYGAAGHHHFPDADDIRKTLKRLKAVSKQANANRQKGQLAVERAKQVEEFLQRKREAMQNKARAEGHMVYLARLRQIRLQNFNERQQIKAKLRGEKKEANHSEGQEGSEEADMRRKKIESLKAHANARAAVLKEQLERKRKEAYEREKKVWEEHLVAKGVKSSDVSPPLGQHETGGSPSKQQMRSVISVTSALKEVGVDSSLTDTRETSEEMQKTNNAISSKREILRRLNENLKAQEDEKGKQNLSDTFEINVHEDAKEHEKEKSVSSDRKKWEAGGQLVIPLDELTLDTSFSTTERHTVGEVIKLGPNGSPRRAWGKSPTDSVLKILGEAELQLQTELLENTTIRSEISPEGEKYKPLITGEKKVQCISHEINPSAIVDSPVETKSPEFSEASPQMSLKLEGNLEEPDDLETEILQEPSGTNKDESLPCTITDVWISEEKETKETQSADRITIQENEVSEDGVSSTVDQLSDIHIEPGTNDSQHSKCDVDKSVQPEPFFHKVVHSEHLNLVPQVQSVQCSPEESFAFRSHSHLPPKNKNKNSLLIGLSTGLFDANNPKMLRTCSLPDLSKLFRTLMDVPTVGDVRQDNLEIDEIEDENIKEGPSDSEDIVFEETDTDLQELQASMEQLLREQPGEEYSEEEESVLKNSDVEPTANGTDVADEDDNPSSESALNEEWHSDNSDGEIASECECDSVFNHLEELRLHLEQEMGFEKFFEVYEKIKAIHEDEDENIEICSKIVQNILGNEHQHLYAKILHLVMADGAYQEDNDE
UniProt Q12866, sequence (whole entry, looked up): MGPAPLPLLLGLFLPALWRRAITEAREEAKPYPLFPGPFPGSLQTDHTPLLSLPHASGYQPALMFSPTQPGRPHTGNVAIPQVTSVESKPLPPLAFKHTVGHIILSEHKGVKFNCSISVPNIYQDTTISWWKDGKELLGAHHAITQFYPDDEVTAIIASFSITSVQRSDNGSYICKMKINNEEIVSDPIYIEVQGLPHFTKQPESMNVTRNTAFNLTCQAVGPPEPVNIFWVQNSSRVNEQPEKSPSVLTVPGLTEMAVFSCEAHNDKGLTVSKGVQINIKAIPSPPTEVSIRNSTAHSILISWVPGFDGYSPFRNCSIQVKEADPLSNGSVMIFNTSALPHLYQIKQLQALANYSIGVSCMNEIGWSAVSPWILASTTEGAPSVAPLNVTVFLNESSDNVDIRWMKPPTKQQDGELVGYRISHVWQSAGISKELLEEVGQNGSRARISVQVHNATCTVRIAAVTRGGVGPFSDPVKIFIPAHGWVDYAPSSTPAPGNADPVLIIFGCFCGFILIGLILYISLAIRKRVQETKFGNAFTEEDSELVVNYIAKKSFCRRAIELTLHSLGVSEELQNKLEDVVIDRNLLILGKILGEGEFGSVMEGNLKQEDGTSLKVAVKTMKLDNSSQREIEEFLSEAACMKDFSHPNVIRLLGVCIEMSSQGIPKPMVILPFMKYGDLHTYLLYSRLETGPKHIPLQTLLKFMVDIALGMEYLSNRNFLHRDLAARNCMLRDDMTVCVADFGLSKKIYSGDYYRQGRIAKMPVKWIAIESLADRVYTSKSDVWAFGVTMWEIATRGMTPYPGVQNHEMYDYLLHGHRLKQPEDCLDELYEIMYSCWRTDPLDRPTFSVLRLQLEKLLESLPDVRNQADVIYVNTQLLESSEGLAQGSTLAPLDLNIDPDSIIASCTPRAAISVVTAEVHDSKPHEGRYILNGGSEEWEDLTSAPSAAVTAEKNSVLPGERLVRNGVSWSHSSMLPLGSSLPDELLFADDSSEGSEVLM
UniProt Q16816, sequence (whole entry, looked up): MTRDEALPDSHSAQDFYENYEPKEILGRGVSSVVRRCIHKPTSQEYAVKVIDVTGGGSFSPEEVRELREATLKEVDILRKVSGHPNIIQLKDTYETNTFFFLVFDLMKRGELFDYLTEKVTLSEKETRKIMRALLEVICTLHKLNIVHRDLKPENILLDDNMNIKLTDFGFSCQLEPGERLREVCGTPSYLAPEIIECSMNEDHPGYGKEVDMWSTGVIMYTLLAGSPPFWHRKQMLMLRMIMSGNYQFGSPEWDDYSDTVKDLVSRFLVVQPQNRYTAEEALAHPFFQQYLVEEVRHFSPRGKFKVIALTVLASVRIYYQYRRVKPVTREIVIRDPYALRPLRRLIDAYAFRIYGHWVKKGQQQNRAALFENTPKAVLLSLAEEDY
UniProt Q13164, sequence (whole entry, looked up): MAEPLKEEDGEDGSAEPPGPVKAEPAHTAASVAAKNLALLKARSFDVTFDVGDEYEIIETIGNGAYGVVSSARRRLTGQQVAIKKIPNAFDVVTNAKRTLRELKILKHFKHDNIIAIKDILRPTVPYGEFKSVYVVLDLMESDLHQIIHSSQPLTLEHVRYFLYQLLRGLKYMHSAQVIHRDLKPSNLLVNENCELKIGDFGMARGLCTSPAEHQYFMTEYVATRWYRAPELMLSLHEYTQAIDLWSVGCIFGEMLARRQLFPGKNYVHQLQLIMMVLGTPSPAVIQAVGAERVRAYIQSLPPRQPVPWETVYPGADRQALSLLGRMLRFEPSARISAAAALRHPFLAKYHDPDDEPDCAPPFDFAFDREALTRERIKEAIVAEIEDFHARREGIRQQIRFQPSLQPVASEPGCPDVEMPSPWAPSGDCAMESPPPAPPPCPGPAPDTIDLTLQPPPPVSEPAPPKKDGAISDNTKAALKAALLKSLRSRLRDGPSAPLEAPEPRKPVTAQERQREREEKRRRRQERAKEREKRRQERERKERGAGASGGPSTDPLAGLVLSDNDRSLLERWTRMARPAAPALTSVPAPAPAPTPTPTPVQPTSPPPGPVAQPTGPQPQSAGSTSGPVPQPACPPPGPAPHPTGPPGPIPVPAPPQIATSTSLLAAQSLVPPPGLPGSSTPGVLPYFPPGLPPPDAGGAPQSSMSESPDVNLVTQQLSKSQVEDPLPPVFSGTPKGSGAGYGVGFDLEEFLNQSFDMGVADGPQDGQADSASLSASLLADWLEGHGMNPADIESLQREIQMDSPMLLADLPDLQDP
UniProt Q8H174, sequence (whole entry, looked up): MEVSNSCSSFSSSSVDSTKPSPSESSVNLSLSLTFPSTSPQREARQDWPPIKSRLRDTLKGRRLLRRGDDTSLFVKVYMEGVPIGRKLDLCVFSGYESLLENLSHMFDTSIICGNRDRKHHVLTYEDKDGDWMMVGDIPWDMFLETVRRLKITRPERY

Study 1
Structure (SMILES): CN(C(=O)c1ccccc1)c1cc(N(C)c2ccc3c(c2)CCc2ccc(C(=O)NCCN4CCOCC4)cc2C3=O)ccc1F
Observed: cell-free assay
Method: competition with immobilised ligand
Concentration: 1 µM
It gave 69% for remaining binding (PHKG1 (Homo sapiens, UniProt Q16816)).
It gave 100% for remaining binding (MAPK15 (Homo sapiens, UniProt Q8TD08)).
For MTOR (Homo sapiens, UniProt P42345): remaining binding read 86%.
The remaining binding was 100% (MST1R (Homo sapiens, UniProt Q04912)).
MAPK7 (Homo sapiens, UniProt Q13164) — remaining binding: 100%.
For AXL (Homo sapiens, UniProt P30530): remaining binding read 87%.
The remaining binding was 100% (ULK3 (Homo sapiens, UniProt Q6PHR2)).
IRAK4 (Homo sapiens, UniProt Q9NWZ3) — remaining binding: 100%.
NEK1 (Homo sapiens, UniProt Q96PY6) — remaining binding: 45%.
It gave 89% for remaining binding (PHKG2 (Homo sapiens, UniProt P15735)).
For TSSK3 (Homo sapiens, UniProt Q96PN8): remaining binding read 100%.
The remaining binding was 100% (CDK16 (Homo sapiens, UniProt Q00536)).

Study 2
Target: PABPC1L2, full length, GST fusion (mouse, UniProt A0ABA7IW68)
Method: RNAcompete
Molecule type: RNA
Sample: in vitro
Concentration: 20 nM
Notes: 7-mer, probes averaged, single round
Reference: mean of 7-mers
Reading: higher = stronger binding
Target sequence (chain): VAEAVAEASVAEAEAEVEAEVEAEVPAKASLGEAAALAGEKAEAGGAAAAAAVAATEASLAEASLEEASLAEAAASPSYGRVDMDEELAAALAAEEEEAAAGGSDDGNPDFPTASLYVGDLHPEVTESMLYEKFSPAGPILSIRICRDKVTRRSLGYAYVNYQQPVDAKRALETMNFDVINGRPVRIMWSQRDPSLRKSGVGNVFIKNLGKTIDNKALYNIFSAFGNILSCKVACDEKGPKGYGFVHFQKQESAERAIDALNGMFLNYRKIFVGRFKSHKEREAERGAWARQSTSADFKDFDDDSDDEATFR
For `AAAAUAC`, the 7-mer Z-score was 5.27.
With `GCCUGAA` the 7-mer Z-score was -0.106.
`CCUAGCG` gave a 7-mer Z-score of -0.287.
The 7-mer Z-score of `CCCUGCG` is reported as -0.246.
`ACACCUA` has a 7-mer Z-score of -0.112.
`CAUUAGG` gave a 7-mer Z-score of -0.11.
With `AAGGACA` the 7-mer Z-score was 0.539.
With `UCCGAGC` the 7-mer Z-score was -0.106.

Study 3
Compound: CC(C)[C@H](CO)Nc1nc(Nc2cccc(Cl)c2)c2ncn(C(C)C)c2n1
Observed: enzyme activity
Mode: inhibitor
Concentration: 0.5 µM
Reference: control
For WEE1 (Homo sapiens, UniProt P30291): remaining activity read 82.6%.
For GSK3B (Homo sapiens, UniProt P49841): remaining activity read 103%.
TBK1 (Homo sapiens, UniProt Q9UHD2) — remaining activity: 93%.
For FGFR1 (Homo sapiens, UniProt P11362): remaining activity read 80.6%.
The remaining activity was 107% (NEK1 (Homo sapiens, UniProt Q96PY6)).
MAP2K2 (Homo sapiens, UniProt P36507) — remaining activity: 104%.
The remaining activity was 86.9% (LCK (Homo sapiens, UniProt P06239)).
ACVR1B (Homo sapiens, UniProt P36896) — remaining activity: 99.8%.
It gave 99.2% for remaining activity (FGFR3 (Homo sapiens, UniProt P22607)).
It gave 90.6% for remaining activity (MST1R (Homo sapiens, UniProt Q04912)).
For FRK (Homo sapiens, UniProt P42685): remaining activity read 90.2%.
It gave 84.7% for remaining activity (MERTK (Homo sapiens, UniProt Q12866)).
It gave 32.4% for remaining activity (CSNK1G2 (Homo sapiens, UniProt P78368)).
It gave 91.3% for remaining activity (NEK6 (Homo sapiens, UniProt Q9HC98)).

Study 4
Molecule: B1 (IAA27)
Method: two-hybrid
Reading: higher = firmer interaction
B1: IAA27 (Arabidopsis thaliana, UniProt Q9ZSY8); chain MSVSVAAEHDYIGLSEFPTMEATTMSDKTKTRDNNNGLNFKATELRLGLPGSESPERVDSRFLALNKSSCPVSGAKRVFSDAINDSNKWVFSPGSTTATGDVGSGSGPRTSVVKDGKSTTFTKPAVPVKEKKSSATAPASKAQVVGWPPIRSFRKNSMASSQSQKPGNNSETEEAEAKSGPEQPCLYVKVSMEGAPYLRKIDLKTYKSYLELSSALEKMFSCFTIGQFGSHGGCGRDGLNESRLTDLLRGSEYVVTYEDKDSDWMLVGDVPWEMFICSCKKLRIMKSSEAIGLAPRVMEKCRSRN
It gave 0 for positive tests (ETT (Arabidopsis thaliana, UniProt O23661); reference: out of 2 tests).
The positive tests was 2 (IAA31 (Arabidopsis thaliana, UniProt Q8H174); reference: out of 2 tests).
ARF17 (Arabidopsis thaliana, UniProt Q84WU6); weak activation fusion; reference: out of 1 tests — positive tests: 0.
The positive tests was 2 (ARF8 699-811 (Arabidopsis thaliana, UniProt Q9FGV1); reference: out of 4 tests).

A few entries again (study 1):
NEK1 (Homo sapiens, UniProt Q96PY6) — remaining binding: 45%.
It gave 89% for remaining binding (PHKG2 (Homo sapiens, UniProt P15735)).
For TSSK3 (Homo sapiens, UniProt Q96PN8): remaining binding read 100%.
